Published values from different studies.
Lines come from different studies, so protocols differ. ± gives the spread as reported.
Mode: agonist
GLP1R: Glucagon-like peptide 1 receptor (GLP1R, Homo sapiens, UniProt P43220)
Chain of UniProt P43220 (whole entry, looked up): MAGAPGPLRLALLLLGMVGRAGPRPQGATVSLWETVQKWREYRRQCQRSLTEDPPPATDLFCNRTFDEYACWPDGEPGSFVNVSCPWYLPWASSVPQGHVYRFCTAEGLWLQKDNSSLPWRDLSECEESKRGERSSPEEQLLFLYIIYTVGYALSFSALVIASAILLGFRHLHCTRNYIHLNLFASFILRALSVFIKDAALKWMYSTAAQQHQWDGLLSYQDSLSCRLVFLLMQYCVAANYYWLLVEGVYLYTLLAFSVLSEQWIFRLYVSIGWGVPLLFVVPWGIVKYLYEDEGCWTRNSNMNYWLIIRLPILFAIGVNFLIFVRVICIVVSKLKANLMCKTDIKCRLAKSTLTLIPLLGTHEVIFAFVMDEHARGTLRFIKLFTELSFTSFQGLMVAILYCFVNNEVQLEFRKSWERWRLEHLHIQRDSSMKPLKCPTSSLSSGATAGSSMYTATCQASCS
CNR1: Cannabinoid receptor 1 (CNR1, Homo sapiens, UniProt P21554)
Chain of UniProt P21554 (whole entry, looked up): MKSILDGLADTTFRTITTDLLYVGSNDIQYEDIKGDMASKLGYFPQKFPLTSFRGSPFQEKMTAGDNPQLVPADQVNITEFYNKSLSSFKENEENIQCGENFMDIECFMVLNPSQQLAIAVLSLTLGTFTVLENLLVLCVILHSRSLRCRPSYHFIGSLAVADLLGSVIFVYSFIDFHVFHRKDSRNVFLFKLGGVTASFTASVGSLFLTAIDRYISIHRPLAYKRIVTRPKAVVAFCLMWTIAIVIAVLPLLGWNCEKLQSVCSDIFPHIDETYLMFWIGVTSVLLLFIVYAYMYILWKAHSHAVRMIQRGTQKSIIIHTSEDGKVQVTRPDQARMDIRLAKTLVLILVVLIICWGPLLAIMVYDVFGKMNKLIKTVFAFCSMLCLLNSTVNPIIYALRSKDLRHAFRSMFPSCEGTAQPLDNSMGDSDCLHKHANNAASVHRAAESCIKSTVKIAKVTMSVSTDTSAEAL
Chain of UniProt P32214 (whole entry, looked up): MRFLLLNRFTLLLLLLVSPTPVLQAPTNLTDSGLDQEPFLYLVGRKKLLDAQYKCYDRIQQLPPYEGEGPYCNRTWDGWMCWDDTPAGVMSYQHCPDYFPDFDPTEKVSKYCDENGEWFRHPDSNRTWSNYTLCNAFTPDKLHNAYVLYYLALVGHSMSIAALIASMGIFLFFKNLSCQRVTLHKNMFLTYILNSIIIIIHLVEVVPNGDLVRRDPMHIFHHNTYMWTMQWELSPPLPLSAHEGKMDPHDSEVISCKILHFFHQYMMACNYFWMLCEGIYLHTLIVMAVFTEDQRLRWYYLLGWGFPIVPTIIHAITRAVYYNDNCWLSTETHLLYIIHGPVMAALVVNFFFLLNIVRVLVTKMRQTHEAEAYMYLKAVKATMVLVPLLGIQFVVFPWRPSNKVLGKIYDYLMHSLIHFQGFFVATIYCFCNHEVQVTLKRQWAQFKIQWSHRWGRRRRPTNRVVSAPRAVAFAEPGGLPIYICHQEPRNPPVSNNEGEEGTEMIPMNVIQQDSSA
Chain of UniProt Q9GZQ4 (whole entry, looked up): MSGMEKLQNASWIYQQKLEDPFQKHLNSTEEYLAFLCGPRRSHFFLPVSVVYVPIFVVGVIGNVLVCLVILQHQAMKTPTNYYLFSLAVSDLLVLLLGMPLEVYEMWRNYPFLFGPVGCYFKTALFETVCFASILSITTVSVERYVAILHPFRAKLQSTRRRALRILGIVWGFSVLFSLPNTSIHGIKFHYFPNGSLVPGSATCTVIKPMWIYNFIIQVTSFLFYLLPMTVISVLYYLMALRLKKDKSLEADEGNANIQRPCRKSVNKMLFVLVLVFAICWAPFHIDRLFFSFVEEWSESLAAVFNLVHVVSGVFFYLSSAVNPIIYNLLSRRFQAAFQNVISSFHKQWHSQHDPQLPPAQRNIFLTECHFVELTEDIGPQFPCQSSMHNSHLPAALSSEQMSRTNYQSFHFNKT
Chain of UniProt Q704Y3 (whole entry, unmodified, looked up): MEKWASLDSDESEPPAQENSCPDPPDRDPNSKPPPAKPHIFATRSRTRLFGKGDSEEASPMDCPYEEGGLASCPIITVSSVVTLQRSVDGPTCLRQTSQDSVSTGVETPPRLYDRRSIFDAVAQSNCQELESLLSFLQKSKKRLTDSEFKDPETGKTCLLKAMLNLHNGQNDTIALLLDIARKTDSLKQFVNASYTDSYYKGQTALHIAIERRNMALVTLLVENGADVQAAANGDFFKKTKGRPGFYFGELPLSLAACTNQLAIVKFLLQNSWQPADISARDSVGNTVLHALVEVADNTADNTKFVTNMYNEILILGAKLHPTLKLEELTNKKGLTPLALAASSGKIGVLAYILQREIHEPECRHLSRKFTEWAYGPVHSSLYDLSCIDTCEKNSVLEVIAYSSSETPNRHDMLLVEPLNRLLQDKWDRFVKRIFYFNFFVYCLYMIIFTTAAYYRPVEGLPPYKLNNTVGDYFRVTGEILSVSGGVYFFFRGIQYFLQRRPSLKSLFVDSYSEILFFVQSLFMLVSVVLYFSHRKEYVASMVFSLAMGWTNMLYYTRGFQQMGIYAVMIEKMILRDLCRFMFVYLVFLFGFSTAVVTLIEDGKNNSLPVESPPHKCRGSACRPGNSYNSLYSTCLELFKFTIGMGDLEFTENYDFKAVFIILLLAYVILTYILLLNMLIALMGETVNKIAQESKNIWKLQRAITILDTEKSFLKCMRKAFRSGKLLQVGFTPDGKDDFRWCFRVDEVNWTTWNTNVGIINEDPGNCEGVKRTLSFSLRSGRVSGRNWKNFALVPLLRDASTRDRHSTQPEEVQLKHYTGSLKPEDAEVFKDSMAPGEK
Chain of UniProt P14416 (whole entry, looked up): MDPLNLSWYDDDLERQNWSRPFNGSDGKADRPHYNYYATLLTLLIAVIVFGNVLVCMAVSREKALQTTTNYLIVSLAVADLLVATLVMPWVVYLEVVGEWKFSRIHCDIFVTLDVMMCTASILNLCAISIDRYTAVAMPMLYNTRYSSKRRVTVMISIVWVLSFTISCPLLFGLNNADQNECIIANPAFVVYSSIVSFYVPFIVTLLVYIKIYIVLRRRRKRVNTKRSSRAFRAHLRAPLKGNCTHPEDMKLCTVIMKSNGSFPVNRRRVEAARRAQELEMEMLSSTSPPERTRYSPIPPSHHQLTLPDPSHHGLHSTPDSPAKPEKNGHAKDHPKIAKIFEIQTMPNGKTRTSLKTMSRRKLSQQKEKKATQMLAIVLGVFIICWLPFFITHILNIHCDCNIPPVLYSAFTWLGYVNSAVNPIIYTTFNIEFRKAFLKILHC
Chain of UniProt Q8TDU6 (whole entry, looked up): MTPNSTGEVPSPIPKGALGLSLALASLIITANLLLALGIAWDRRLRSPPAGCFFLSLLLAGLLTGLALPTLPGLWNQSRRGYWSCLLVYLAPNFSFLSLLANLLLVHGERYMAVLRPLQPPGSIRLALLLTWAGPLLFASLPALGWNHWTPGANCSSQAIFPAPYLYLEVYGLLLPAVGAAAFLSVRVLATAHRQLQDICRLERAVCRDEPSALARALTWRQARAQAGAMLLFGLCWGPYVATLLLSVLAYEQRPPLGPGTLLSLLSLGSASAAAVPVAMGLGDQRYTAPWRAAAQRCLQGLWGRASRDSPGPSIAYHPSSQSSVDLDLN
Chain of UniProt Q9JJ73 (whole entry, looked up): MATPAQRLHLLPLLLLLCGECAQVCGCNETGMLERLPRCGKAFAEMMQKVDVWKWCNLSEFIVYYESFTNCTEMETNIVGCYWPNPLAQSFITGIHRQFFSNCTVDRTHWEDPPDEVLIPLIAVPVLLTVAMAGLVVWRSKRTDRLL

| Compound | target | assay | test system | conditions | EC50 |
| --- | --- | --- | --- | --- | --- |
| CC(C)C[C@H](NC(=O)[C@H](Cc1ccc(O)cc1)NC(=O)[C@H](CO)NC(=O)[C@H](CO)NC(=O)[C@@H](NC(=O)[C@H](CC(=O)O)NC(=O)[C@H](CO)NC(=O)[C@@H](NC(=O)[C@H](Cc1ccccc1)NC(=O)[C@@H](NC(=O)CNC(=O)[C@H](CCC(=O)O)NC(=O)[C@H](C)NC(=O)[C@@H](N)Cc1c[nH]cn1)[C@@H](C)O)[C@@H](C)O)C(C)C)C(=O)N[C@@H](CCC(=O)O)C(=O)NCC(=O)N[C@@H](CCC(N)=O)C(=O)N[C@@H](C)C(=O)N[C@@H](C)CN(CC(=O)N[C@@H](CCC(=O)O)C(=O)N[C@@H](Cc1ccccc1)CN(CC(=O)N[C@@H](C)C(=O)N[C@@H](Cc1c[nH]c2ccccc12)CN(CC(=O)N[C@H](C(=O)N[C@@H](CCCCN)CN(CC(=O)N[C@@H](CCCNC(=N)N)C(=O)N[C@@H](CCCCN)CN(CC(N)=O)S(C)(=O)=O)S(C)(=O)=O)C(C)C)S(=O)(=O)CC(C)C)S(=O)(=O)CC(C)C)S(=O)(=O)CCN | GLP1R | reporter gene, luciferase |  |  | > 1000 nM |
| CC[C@H](C)[C@@H]1NC(=O)[C@H](CC(N)=O)NC(=O)[C@@H]2CCCN2C(=O)[C@@H](NC(=O)[C@H](CC(N)=O)NC(=O)[C@@H](N)CCC(N)=O)COC(=O)CN(CCSC)C(=O)[C@H](Cc2c[nH]c3ccccc23)NC(=O)[C@H](CCC(N)=O)NC(=O)CNC(=O)[C@H](Cc2ccccc2)NC1=O | Fsr quorum sensing protein (Enterococcus faecalis, UniProt A0ACD6TCR9) | Fsr quorum sensing, β-galactosidase reporter |  |  | > 10000 nM |
| CC(=O)Nc1ccc(C(C)(C)NC(=O)c2ccn(Cc3ccc(Cl)cc3)n2)c(Cl)c1 | CNR1 | calcium signal |  |  | 1470 nM |
| CC(=O)N[C@@H](Cc1c[nH]cn1)C(=O)N[C@@H](C)C(=O)N[C@@H](CCC(=O)O)C(=O)NCC(=O)N[C@H](C(=O)N[C@@H](Cc1ccccc1)C(=O)N[C@H](C(=O)N[C@@H](CO)C(=O)N[C@@H](CC(=O)O)C(=O)N[C@H](C(=O)N[C@@H](CO)C(=O)N[C@@H](CO)C(=O)N[C@@H](Cc1ccc(O)cc1)C(=O)N[C@@H](CC(C)C)C(=O)N[C@@H](CCC(=O)O)C(=O)NCCN(CC(=O)N[C@@H](C)C(=O)N[C@@H](C)CN(CC(=O)N[C@@H](CCC(=O)O)C(=O)N[C@@H](Cc1ccccc1)CN(CC(=O)N[C@@H](C)C(=O)N[C@@H](Cc1c[nH]c2ccccc12)CN(CC(=O)N[C@H](C(=O)N[C@@H](CCCCN)CN(CC(=O)N[C@@H](CCCNC(=N)N)C(=O)N[C@@H](CCCCN)CN(CC(N)=O)S(C)(=O)=O)S(C)(=O)=O)C(C)C)S(=O)(=O)CC(C)C)S(=O)(=O)CC(C)C)S(=O)(=O)CCN)S(=O)(=O)CCN)C(C)C)[C@@H](C)O)[C@@H](C)O | GLP1R | reporter gene, luciferase |  |  | > 1000 nM |
| CCCCCn1ccc(C(=O)NC(C)(C)c2ccc(-c3nn[nH]n3)cc2)n1 | CNR1 | calcium signal |  |  | > 10000 nM |
| CC[C@H](C)[C@H](NC(=O)[C@H](C)NC(=O)CNC(=O)[C@H](Cc1ccccc1)NC(=O)[C@H](CC(N)=O)NC(=O)[C@H](CC(N)=O)NC(=O)[C@H](CO)NC(=O)[C@H](CO)NC(=O)[C@H](Cc1c[nH]cn1)NC(=O)[C@@H](NC(=O)[C@H](CC(C)C)NC(=O)[C@H](Cc1ccccc1)NC(=O)[C@H](CC(N)=O)NC(=O)[C@H](C)NC(=O)[C@H](CC(C)C)NC(=O)[C@H](CCCNC(=N)N)NC(=O)[C@H](CCC(N)=O)NC(=O)[C@@H](NC(=O)[C@H](C)NC(=O)[C@@H]1CSSC[C@H](NC(=O)[C@H](CCCCN)NC(=O)[C@H](CCCNC(=N)N)NC(=O)[C@H](CCCCN)NC(=O)[C@H](CCC(=O)O)NC(=O)[C@@H](NC(=O)[C@H](CCC(N)=O)NC(=O)[C@H](Cc2c[nH]cn2)NC(=O)[C@H](CO)NC(=O)[C@H](CCC(=O)O)NC(=O)[C@@H](NC(=O)[C@@H]2CCCN2C(=O)[C@@H](N)[C@@H](C)O)[C@@H](C)CC)C(C)C)C(=O)N[C@@H](CC(N)=O)C(=O)N[C@@H]([C@@H](C)O)C(=O)N[C@@H](C)C(=O)N[C@@H]([C@@H](C)O)C(=O)N1)[C@@H](C)O)C(C)C)C(=O)N[C@@H](CC(C)C)C(=O)N[C@@H](CO)C(=O)N[C@@H](CO)C(=O)N[C@H](C(=O)N[C@@H](CC(N)=O)C(=O)N[C@H](C(=O)NCC(=O)N[C@@H](CO)C(=O)N[C@@H](CC(N)=O)C(=O)N[C@H](C(=O)N[C@@H](Cc1ccc(O)cc1)C(N)=O)[C@@H](C)O)C(C)C)[C@@H](C)O | Amylin receptor AMY3; CALCR/RAMP3 (Rattus norvegicus, UniProt P32214+Q9JJ73) | cAMP accumulation | COS-7, transfected |  | 38 nM |
| CCCCC/C=C\C/C=C\C/C=C\C/C=C\CCCC(=O)NCCc1ccc(O)c(O)c1 | Trpv1 (Mus musculus, UniProt Q704Y3, S513A) | ion current, whole-cell patch clamp |  | 24 °C, +80 mV | 90 ± 20 nM |
| CC(CCC(=O)NCC(=O)O)C1CCC2C3C(O)CC4CC(OS(=O)(=O)O)CCC4(C)C3CC(O)C12C (stereo not drawn) | GPBAR1 (Homo sapiens, UniProt Q8TDU6) |  |  |  | > 200000 nM |
| O=C(O)CCn1c(=O)oc2cc(Cl)c(Cl)cc21 | DRD2 (Homo sapiens, UniProt P14416) |  |  |  | > 100000 nM |
| CCCCCn1ccc(C(=O)NC(C)(C)c2cccc(C)c2)n1 | CNR1 | calcium signal |  |  | > 10000 nM |
| CCCCCCCCCCCCCCCCCC(=O)NC[C@H]1CC[C@H](C(=O)N[C@@H](CCC(=O)NCCCOCCOCCOCCCNC(=O)COCC(=O)N[C@@H](Cc2ccc(O)cc2)C(=O)NC(C)(Cc2ccccc2)C(=O)N[C@@H](CC(C)C)C(=O)N[C@@H](CCCC)C(=O)N[C@@H](CCCNC(=N)N)C(=O)N2CCC[C@H]2C(=O)N[C@@H](CCCNC(=N)NC)C(=O)N[C@@H](CC(N)=O)C(N)=O)C(=O)O)CC1 (stereo partly drawn) | NMUR2 (Homo sapiens, UniProt Q9GZQ4) | beta-arrestin recruitment, PathHunter luminescence | CHO-K1 | 90 min, 37 °C | 6.9 nM |
| CC[C@H](C)[C@H](NC(=O)[C@H](Cc1ccccc1)NC(=O)[C@H](CCC(=O)O)NC(=O)[C@H](CCCCN)NC(=O)[C@H](C)NC(=O)[C@H](C)NC(=O)[C@H](CCC(N)=O)NC(=O)CNC(=O)[C@H](CCC(=O)O)NC(=O)[C@H](CC(C)C)NC(=O)[C@H](Cc1ccc(O)cc1)NC(=O)[C@H](CO)NC(=O)[C@H](CO)NC(=O)[C@@H](NC(=O)[C@H](CC(=O)O)NC(=O)[C@H](CO)NC(=O)[C@@H](NC(=O)[C@H](Cc1ccccc1)NC(=O)[C@@H](NC(=O)CNC(=O)[C@H](CCC(=O)O)NC(=O)[C@H](C)NC(=O)[C@@H](N)Cc1c[nH]cn1)[C@@H](C)O)[C@@H](C)O)C(C)C)C(=O)N[C@@H](C)C(=O)N[C@@H](Cc1c[nH]c2ccccc12)CN(CC(=O)N[C@H](C(=O)N[C@@H](CCCCN)CN(CC(=O)N[C@@H](CCCNC(=N)N)C(=O)N[C@@H](CCCCN)CN(CC(N)=O)S(C)(=O)=O)S(C)(=O)=O)C(C)C)S(=O)(=O)CC(C)C | GLP1R | reporter gene, luciferase |  |  | 52.5 nM |

Some of these lines once more:
| Compound | target | assay | test system | conditions | EC50 |
| --- | --- | --- | --- | --- | --- |
| CC[C@H](C)[C@H](NC(=O)[C@H](Cc1ccccc1)NC(=O)[C@H](CCC(=O)O)NC(=O)[C@H](CCCCN)NC(=O)[C@H](C)NC(=O)[C@H](C)NC(=O)[C@H](CCC(N)=O)NC(=O)CNC(=O)[C@H](CCC(=O)O)NC(=O)[C@H](CC(C)C)NC(=O)[C@H](Cc1ccc(O)cc1)NC(=O)[C@H](CO)NC(=O)[C@H](CO)NC(=O)[C@@H](NC(=O)[C@H](CC(=O)O)NC(=O)[C@H](CO)NC(=O)[C@@H](NC(=O)[C@H](Cc1ccccc1)NC(=O)[C@@H](NC(=O)CNC(=O)[C@H](CCC(=O)O)NC(=O)[C@H](C)NC(=O)[C@@H](N)Cc1c[nH]cn1)[C@@H](C)O)[C@@H](C)O)C(C)C)C(=O)N[C@@H](C)C(=O)N[C@@H](Cc1c[nH]c2ccccc12)CN(CC(=O)N[C@H](C(=O)N[C@@H](CCCCN)CN(CC(=O)N[C@@H](CCCNC(=N)N)C(=O)N[C@@H](CCCCN)CN(CC(N)=O)S(C)(=O)=O)S(C)(=O)=O)C(C)C)S(=O)(=O)CC(C)C | GLP1R | reporter gene, luciferase |  |  | 52.5 nM |
